# Results from different studies.
# ± marks the error that the study gave.
SMILES,cell line,test,test system,setting,IC50
CCN(C(=O)c1cc(F)ccc1Oc1nncnc1N1CCC2(C1)CN([C@H](CCCN(C)CCOC)C(C)C)C2)C(C)C,RS4;11,"cell growth, live-cell imaging spheroids",,8 days,0.04 µM
CCOP(=O)(OCC)C(Cc1c(F)c(F)c(Sc2ccc(OC)cc2)c(F)c1F)Nc1ccccc1 (centres unmarked),T98G,"cell growth or viability, MTT",,48 h,36.8 µM
Cc1cnc(Nc2cc(C)c(C)c(C)c2)nc1Nc1ccc2oc(=O)[nH]c2c1,human T cells,"STAT5 phosphorylation, flow cytometry",,with: IL-2,0.0178 µM
CCOP(=O)(OCC)C(Cc1cc(F)c(F)c(F)c1)Nc1ccccc1 (centres unmarked),T98G,"cell growth or viability, MTT",,48 h,25.1 µM
O=c1sn(Cc2ccccc2)c(=O)n1C1CC1,NB-4,cell growth or viability,,72 h,15.1 µM
CC(C)c1cccc(C(C)C)c1N1CCN(c2c(C(C)C)cccc2C(C)C)C1=[Se].[Cl][Au],human ovarian cancer cells,"cell viability, MTT",,72 h,4.5 ± 1.2 µM
CC1(C)Cc2c(-c3ccccc3)c(-c3ccc(Cl)cc3)c(CC(=O)NCC(=O)O)n2C1,human Macrophage,"PGE2 release, inhibitor",,"24 h, LPS-stimulated",0.47 µM
NC1=N[N+](=Cc2c3ccccc3cc3ccccc23)[Ga-3]23([S]1)([S]C(N)=N[N+]2=Cc1c2ccccc2cc2ccccc12)[S]C(N)=N[N+]3=Cc1c2ccccc2cc2ccccc12,CCD-18Co,,,24 h,54 ± 1.8 µM
Cc1cc(C=O)cc(C)c1Oc1cc(Nc2ccc(C#N)cc2)nc2cnccc12,HuCC-A1,,,48 h,> 127 µM
Cc1ccc(-c2nn(-c3ccccc3)cc2/C=C(\C#N)c2nc3ccccc3[nH]2)cc1,SW1990,"cell growth or viability, ATP luminescence",,72 h,> 100 µM
CC(C)c1cccc(C(C)C)c1-n1c(Cl)c(Cl)n(-c2c(C(C)C)cccc2C(C)C)c1=[Se].[Cl][Ag],LoVo,"cell growth or viability, MTT",,72 h,1.8 µM
N#C/C(=C\c1cn(-c2ccccc2)nc1-c1ccc(Cl)cc1Cl)c1nc2ccccc2[nH]1,SW1990,"cell growth or viability, ATP luminescence",,72 h,> 100 µM
Cc1ccc(C(C)C)cc1.[Cl][Au].[Cl][Ru][Cl].c1ccc(P(CP(c2ccccc2)c2ccccc2)c2ccccc2)cc1,L929,"cell growth or viability, trypan blue",,48 h,36.1 µM
CCC(C(=O)O)C1(O)CCCCC1 (centres unmarked),Fem-X,cell growth or viability,,72 h,> 200 µM
COc1c(C)c(OS(=O)(=O)c2ccccc2)c(C)c2c1C(=O)CC(c1ccccc1)O2 (centres unmarked),FaDu,"cell growth or viability, SRB",,72 h,> 50 µM
C#CCOc1ccc(-c2n(CC(=O)O[C@@H]3C[C@H](C)CC[C@H]3C(C)C)c3ccccc3[n+]2C)cc1N=[N+]=[N-],mouse glioblastoma HTS cells,"cell viability, CellTiter-Glo",,96 h,~0.35 µM
CC(C)Cc1ccc(C(C)C(=O)[O][Pt]([NH2])([NH2])([Cl])([Cl])[O]C(=O)C(Cl)Cl)cc1 (centres unmarked),LoVo,"cell growth or viability, MTT",,72 h,0.285 µM
Cc1ccc2c(c1)[n+]([O-])c(C#N)c(-c1ccco1)[n+]2[O-],KB,"cell growth or viability, resazurin",,72 h,4.38 µM
N=C(N)NCCC[C@H](N)C(=O)N[C@H](CC(=O)N[C@@H](CC(=O)O)C(=O)O)c1cccc2ccccc12,MCF-7 (no HER2 overexpression),,,,> 50 µM
COc1ccc(Cn2cc(COc3c(OC)ccc4cc5[n+](cc34)CCc3cc4c(cc3-5)OCO4)nn2)cc1,SW1990,"cell growth or viability, MTT",,,35.6 µM
Cc1cc(C=O)cc(C)c1Oc1cc(Nc2ccc(C#N)cc2)nc2ccncc12,HuCC-A1,,,48 h,103 ± 5.4 µM
N[C@@H](CCC(=O)N[C@@H](CS[Se]Cc1ccc(-c2cc(C(F)(F)F)nn2-c2ccc(S(N)(=O)=O)cc2)cc1)C(=O)NCC(=O)O)C(=O)O,WM-115 melanoma cells,"cell viability, MTS",,"24 h, vertical stage",30.1 ± 3.3 µM
COc1ccc2nc(NC(=O)c3ccc(C(N)c4ccccc4)cc3)sc2c1 (centres unmarked),NCI-H1155,cell viability,,,> 10 µM
CC1=C2[O][Ru-]([Cl])[O+]=C2C=CN1CCCCCCCCCCCCN1C=CC2=[O+][Ru-]([Cl])[O]C2=C1C.Cc1ccc(C(C)C)cc1.Cc1ccc(C(C)C)cc1,SISO,"cell growth or viability, crystal violet",,96 h,2.5 µM
CCCCCCCCCCn1c(-c2cccnc2)nc(-c2ccc(C)cc2)c1-c1ccc(C)cc1,L929,"cell growth or viability, SRB",,,199 µM
CCCC(CCC)C(=O)[O][Pt]([NH2])([NH2])([Cl])([Cl])[O]C(=O)c1ccccc1OC(C)=O,BCPAP,"cell growth or viability, MTT",,72 h,0.01 µM
C=CCc1cc(OC)c(OC(C)=O)c(OC)c1,HSC-4,MTT,,24 h,> 50 µM
N=C(N/N=C/c1ccccn1)N/N=C/c1ccccn1,KP-4,"cell growth or viability, crystal violet",,72 h,5.4 µM
Cc1cc(N)c2cc(NC(=O)CC(=O)Nc3ccc4nc(C)cc(N)c4c3)ccc2n1,CHO wild type,"FGF2 binding to heparan sulfate, inhibitor, flow cytometry",,"on ice, with: biotinylated FGF2 2.5 nM",1.2 ± 0.03 µM
COc1ccc2cc3[n+](cc2c1OCc1cn(Cc2ccccc2C#N)nn1)CCc1cc2c(cc1-3)OCO2,SW1990,"cell growth or viability, MTT",,,81 µM
CC(=O)O[C@@H]1CC[C@@]2(C)[C@@H](CC[C@]3(C)[C@@H]2C(=O)C=C2[C@@H]4[C@@H](C)[C@H](C)CC[C@]4(C)CC[C@]23C)[C@@]1(C)C(=O)NCCNC(=O)OC(C)(C)C,HBE,"cell growth or viability, MTT",,48 h,> 30 µM
C[n+]1c(/C=C/c2ccc(N(c3ccccc3)c3ccccc3)cc2)cc(/C=C2\Sc3ccccc3N2CCCN2CCCC2)c2ccccc21,CA46,cell growth or viability,,36 h,1.95 µM
CC1(C)CCN(Cc2ccc(C(=O)NC[C@]3(O)CCCN(c4cc(NCc5ccccc5)ncn4)C3)c(O)c2)CC1,U2OS,"m6A mRNA level, UPLC-MS/MS",,16 h,9 µM
CC(=O)O[C@@H]1CC[C@@]2(C)[C@@H](CC[C@]3(C)[C@@H]2C(=O)C=C2[C@@H]4[C@@H](C)[C@H](C)CC[C@]4(C)CC[C@]23C)[C@@]1(C)C(=O)NCCNC(=O)CCCCCCCCCC[P+](c1ccccc1)(c1ccccc1)c1ccccc1,HBE,"cell growth or viability, MTT",,48 h,2.44 µM
CC(=O)N[C@@H](CCCNC(=N)N)C(=O)N[C@H](CC(=O)N[C@@H](Cc1ccccc1)C(N)=O)c1cccc2ccccc12,MCF-7 (no HER2 overexpression),,,,26.1 ± 1.75 µM
CCCCCCC(=O)NCCNC(=O)[C@]1(C)[C@@H]2CC[C@]3(C)[C@H](C(=O)C=C4[C@@H]5[C@@H](C)[C@H](C)CC[C@]5(C)CC[C@]43C)[C@@]2(C)CC[C@H]1OC(C)=O,HBE,"cell growth or viability, MTT",,48 h,5.94 µM
CC(=O)OC[C@@]12CCC[C@@](C)(CO)[C@H]1CC[C@@]13C[C@@H](C[C@H](O)[C@H]12)[C@H](C)C3=O,HBE,"cell growth or viability, MTT",,,> 20 µM
[Cl][Au].[Se]=c1n(C23CC4CC(CC(C4)C2)C3)ccn1C12CC3CC(CC(C3)C1)C2,human ovarian cancer cells,"cell viability, MTT",,72 h,2.3 ± 0.4 µM
N=C(N/N=C/c1ccc[nH]1)N/N=C/c1ccc[nH]1,KP-4,"cell growth or viability, crystal violet",,72 h,0.52 µM
O=C(Cc1ccc2ccccc2c1)N[C@H](Cc1ccccc1)C(=O)N[C@H](Cc1ccc(O)cc1)C(=O)N[C@H](Cc1ccccc1)C(=O)N[C@H](Cc1ccc(OP(=O)(O)O)cc1)C(=O)O,T98G,"cell growth or viability, MTT",,,283 µg/mL
C[C@H]1[C@H](C)CC[C@]2(C)CC[C@]3(C)C(=CC(=O)[C@@H]4[C@@]5(C)CC[C@@H](O)[C@](C)(C(=O)NCCNC(=O)c6ccccc6)[C@@H]5CC[C@]43C)[C@H]12,HBE,"cell growth or viability, MTT",,48 h,11 µM
COC(=O)[C@H]1[C@H]2C[C@H]3O[C@@]4(CCN3C[C@H]2C[C@@H](OC(=O)c2cc(OC)c(OC)c(OC)c2)[C@@H]1OC)C(=O)Nc1cc(OC)c(Br)cc14,RS4-11,"cell growth or viability, trypan blue",,72 h,10.2 µM
O=C1NCC(Cc2ccccc2)N(CC2CCCN2CC(CC2CCCCC2)N2CC(Cc3ccc(O)cc3)N(CCc3ccccc3)C(=O)C2=O)C1=O (centres unmarked),human primary adult melanocytes,viability,,72 h,> 100 µM
C=C1CC23CC4C5C6(C)CC(O)CC57C(C2C(O)C1C(O)C37)N4C6 (centres unmarked),HBE,"cell growth or viability, MTT",,,21.8 µM
COc1ccc(-c2cc(-c3nnn(-c4ccc(Br)cc4)c3C)nc(N)c2C#N)cc1,BALB/3T3,"cell growth or viability, MTT",,,15.1 µg/mL
COc1ccc(CN2C[C@H](O)[C@H](O)[C@@H]2CO)cc1,U2OS,"cell growth or viability, MTS",,72 h,200 µM
CN1CCN(c2ccc(/C=C3\C(=O)Nc4ccc(-c5ccc(-c6ccc(O)cc6)cc5)cc43)cc2)CC1,NIH3T3,"cell growth or viability, WST-1",,48 h,18.7 µM
CN(C)/C=C/C(=O)c1ccc2[nH]c3ncc(-c4ccc(N5CCN(C)CC5)cc4)cc3c2c1,Ba/F3 NPM-ALK wild type,"cell proliferation, [3H]-thymidine incorporation",,,0.39 µM
C=CC(=O)Nc1cc(Nc2nccc(-c3c(-c4cccc(F)c4)n(C)c4ccccc34)n2)c(OC)cc1N(C)CCN(C)C,NCI-H1975 EGFR T790M/L858R,,,72 h,0.0438 ± 0.0005 µM
CCOC12C(O)C(OC)C3(O)CC(C1C3OC(=O)c1ccccc1)C13C(OC)CC(O)C4(COC)CN(C)C1C2C(OC)C43 (centres unmarked),HBE,"cell growth or viability, MTT",,,30.2 µM
C=C[CH2][Pd-]([Cl])[Cl].Cc1cc(C)c(-n2c[n+](-c3c(C)cc(C)cc3C)c3c2-c2cccc4cccc-3c24)c(C)c1,2008 spheroids,"cell viability, APH",3D spheroids,72 h,24.3 ± 0.9 µM
CC(C)=CCc1c(O)cc2oc3cc(O)c(O)c(CC=C(C)C)c3c(=O)c2c1O,SW480,cell growth or viability,,48 h,8.4 µM
COc1ccc2cc3[n+](cc2c1OCc1cn(Cc2ccccc2)nn1)CCc1cc2c(cc1-3)OCO2,SW1990,"cell growth or viability, MTT",,,28.6 µM
COc1cc(/C=C/C(=O)NCCCCCCNC2=C3C[C@@H](C)C[C@H](OC)[C@H](O)[C@@H](C)/C=C(\C)[C@H](OC(N)=O)[C@@H](OC)/C=C\C=C(/C)C(=O)NC(=CC2=O)C3=O)ccc1O,BGC-823,"cell growth or viability, MTT",,72 h,0.709 µM
COc1ccc([C@@H]2CC(=O)c3c(O)cc(O[C@@H]4O[C@H](CO[C@@H]5O[C@@H](C)[C@H](O)[C@@H](O)[C@H]5O)[C@@H](O[C@H]5O[C@H](CO)[C@@H](O)[C@H](O)[C@H]5O)[C@H](O)[C@H]4O)cc3O2)cc1O,A549,"cell growth or viability, MTS",,72 h,54.6 µg/mL
CC1CC(=O)N(CCCCCCN)N=C1c1ccc(NC(=O)N2Cc3ccncc3C2)cc1 (centres unmarked),MDA-MB-453,"cell growth or viability, ATP luminescence",,,< 3e-05 µM
O=C(Nc1ccn([C@@H]2O[C@H](CO)[C@@H](O)[C@H](F)[C@H]2O)c(=O)n1)c1ccccc1,Molt4/C8,cell growth or viability,,,> 200 µM
Cc1ccc2nc(C)n(/N=C/c3ccc(C(=O)O)cc3)c(=O)c2c1,LoVo,"cytotoxicity, LDH release",,"24 h, 50% viability reduction",321 ± 13.2 µM
Cc1ncsc1-c1ccc(C(CO)NC(=O)C2CC(O)CN2C(=O)C(C(C)C)n2cc(-c3ccc(COc4c(-c5c(C)c(F)cc6[nH]ncc56)c(C5CC5)cc5c(N6CC7CC6CN7)nc(OC6CCOCC6)nc45)cc3)nn2)cc1 (centres unmarked),AsPC-1,"ERK1/2 phosphorylation, inhibitor, In-Cell ELISA",,24 h,0.014 µM

# A few entries again:
SMILES,cell line,test,test system,setting,IC50
N[C@@H](CCC(=O)N[C@@H](CS[Se]Cc1ccc(-c2cc(C(F)(F)F)nn2-c2ccc(S(N)(=O)=O)cc2)cc1)C(=O)NCC(=O)O)C(=O)O,WM-115 melanoma cells,"cell viability, MTS",,"24 h, vertical stage",30.1 ± 3.3 µM
N=C(N/N=C/c1ccc[nH]1)N/N=C/c1ccc[nH]1,KP-4,"cell growth or viability, crystal violet",,72 h,0.52 µM
CC(C)c1cccc(C(C)C)c1-n1c(Cl)c(Cl)n(-c2c(C(C)C)cccc2C(C)C)c1=[Se].[Cl][Ag],LoVo,"cell growth or viability, MTT",,72 h,1.8 µM
CC1(C)Cc2c(-c3ccccc3)c(-c3ccc(Cl)cc3)c(CC(=O)NCC(=O)O)n2C1,human Macrophage,"PGE2 release, inhibitor",,"24 h, LPS-stimulated",0.47 µM
CN(C)/C=C/C(=O)c1ccc2[nH]c3ncc(-c4ccc(N5CCN(C)CC5)cc4)cc3c2c1,Ba/F3 NPM-ALK wild type,"cell proliferation, [3H]-thymidine incorporation",,,0.39 µM
CC1=C2[O][Ru-]([Cl])[O+]=C2C=CN1CCCCCCCCCCCCN1C=CC2=[O+][Ru-]([Cl])[O]C2=C1C.Cc1ccc(C(C)C)cc1.Cc1ccc(C(C)C)cc1,SISO,"cell growth or viability, crystal violet",,96 h,2.5 µM
COc1ccc([C@@H]2CC(=O)c3c(O)cc(O[C@@H]4O[C@H](CO[C@@H]5O[C@@H](C)[C@H](O)[C@@H](O)[C@H]5O)[C@@H](O[C@H]5O[C@H](CO)[C@@H](O)[C@H](O)[C@H]5O)[C@H](O)[C@H]4O)cc3O2)cc1O,A549,"cell growth or viability, MTS",,72 h,54.6 µg/mL
CCCC(CCC)C(=O)[O][Pt]([NH2])([NH2])([Cl])([Cl])[O]C(=O)c1ccccc1OC(C)=O,BCPAP,"cell growth or viability, MTT",,72 h,0.01 µM
